# Published values from different studies.
# “And” joins repeats or separate records; there may be more than shown. ± gives the spread as reported.
SMILES,organism,test,test system,conditions,how to read,endpoint,value
CC[C@H](C)[C@H](NC(=O)[C@H](CCCCN)NC(=O)[C@H](CCCCN)NC(=O)[C@H](CC(C)C)NC(=O)[C@H](CCCCN)NC(=O)[C@H](CCC(=O)O)NC(=O)[C@H](CCCCN)NC(=O)[C@@H](NC(=O)[C@H](CCCCN)NC(=O)[C@H](CC(N)=O)NC(=O)[C@H](CCCNC(=N)N)NC(=O)[C@H](Cc1ccccc1)NC(=O)[C@H](CCCCN)NC(=O)[C@H](CCCNC(=N)N)NC(=O)[C@H](CC(C)C)NC(=O)[C@H](CCCNC(=N)N)NC(=O)[C@H](CCCCN)NC(=O)[C@H](CCCNC(=N)N)NC(=O)[C@@H](N)CC(C)C)[C@@H](C)CC)C(=O)NCC(=O)N[C@@H](CCC(N)=O)C(=O)N[C@@H](CCCCN)C(=O)N[C@H](C(=O)N[C@@H](CCC(N)=O)C(=O)NCC(=O)N[C@@H](Cc1ccccc1)C(=O)N[C@H](C(=O)N1CCC[C@H]1C(=O)N[C@@H](CCCCN)C(=O)N[C@@H](CC(C)C)C(=O)O)C(C)C)[C@@H](C)CC,Alcaligenes faecalis,inhibition zone,CGMCC 1.184,,,lethal concentration,1.92 µM
CC(=O)O[C@@H]1C[C@@H](C)O[C@H]2O[C@@H]3C[C@@H]4CC[C@@H]5[C@H](CC[C@]6(C)[C@@H](C7=CC(=O)OC7)CC[C@]56O)[C@@]4(C=O)C[C@H]3O[C@]21O,Schistosoma mansoni,microscopic viability score,adult worms,"1 µM, 72 h",,viability effect,90%
CC[C@H](C)[C@H](NC(=O)[C@H](CCCCN)NC(=O)[C@H](CCCCN)NC(=O)[C@H](CC(C)C)NC(=O)[C@H](CCCCN)NC(=O)[C@H](CCC(=O)O)NC(=O)[C@H](CCCCN)NC(=O)[C@@H](NC(=O)[C@H](CCCCN)NC(=O)[C@H](CC(N)=O)NC(=O)[C@H](CCCNC(=N)N)NC(=O)[C@H](Cc1ccccc1)NC(=O)[C@H](CCCCN)NC(=O)[C@H](CCCNC(=N)N)NC(=O)[C@H](CC(C)C)NC(=O)[C@H](CCCNC(=N)N)NC(=O)[C@H](CCCCN)NC(=O)[C@H](CCCNC(=N)N)NC(=O)[C@H](CC(C)C)NC(=O)[C@@H](N)CCCNC(=N)N)[C@@H](C)CC)C(=O)NCC(=O)N[C@@H](CCC(N)=O)C(=O)N[C@@H](CCCCN)C(=O)N[C@H](C(=O)N[C@@H](CCC(N)=O)C(=O)NCC(=O)N[C@@H](Cc1ccccc1)C(=O)N[C@H](C(=O)N1CCC[C@H]1C(=O)N[C@@H](CCCCN)C(=O)N[C@@H](CC(C)C)C(=O)N[C@@H](CCC(N)=O)C(=O)N1CCC[C@H]1C(=O)N[C@@H](CO)C(=O)N[C@@H](CCCCN)C(=O)N[C@@H](CCC(N)=O)C(=O)N[C@@H](CO)C(=O)O)C(C)C)[C@@H](C)CC,Streptococcus salivarius,inhibition zone,ATCC 1.2498,"LB agar, overnight",,lethal concentration,4.13 µM
Cc1cn(C2CC(N(C)C)C(CO)O2)c(=O)[nH]c1=O (stereo not drawn),respiratory syncytial virus,viral replication,HeLa,,,EC50,> 0.37 µM
CS(=O)(=O)c1ccc(/C=N/NC(=O)Cn2ccc(=O)c3ccccc32)cc1,Rhizoctonia solani,microbial growth,,50 µg/mL,,inhibition,14.3%
CON(C(=O)c1cn(C)nc1C(F)F)C(C)Cc1c(Cl)cc(Cl)cc1Cl (stereo not drawn),Alternaria alternata,microbial growth,,1.56 µg/mL,,inhibition,95%
C=Cc1cc(OC)c2c(c1)c(=O)oc1c2cc(OC)c2c(O)ccc([C@@H]3O[C@H](C)[C@H](O)[C@@](C)(O)[C@H]3O)c21,Staphylococcus aureus,crystal violet,MRSA USA300,"2 × MIC, 24 h",,biofilm eradication,88%
CCC1c2cc(OC)c(O)cc2C(c2ccc(O)c(OC)c2)C1C (stereo not drawn),Spodoptera frugiperda,,larvae,1000 µg/mL,baseline: untreated control,antifeedant index,42.5%
CCCCCCCCCCCCCC(=O)N[C@H](CCN)C(=O)N[C@@H]1C(=O)N[C@@H](CCN)C(=O)N[C@@H](CC(C)C)C(=O)N[C@@H](CCN)C(=O)N[C@H](Cc2ccccc2)C(=O)N[C@@H](CC(C)C)C(=O)N[C@@H](CCN)C(=O)N[C@H](CCN)C(=O)N[C@@H](C(C)C)C(=O)N[C@@H](CC(=O)O)C(=O)O[C@@H]1C,"Staphylococcus aureus, Escherichia coli",,"BNCC 186335, ATCC 25922",1 × MIC,,time to complete killing,≤ 4 h
CC(=O)c1c(O)c(C)c(O)c2c1OC1=CC(=O)/C3=C(/C)N[C@H](C(=O)O)CC1=CC=C(O)C=C[C@@]2(C)C3=O,Candida tropicalis,broth microdilution,ATCC 750 fluconazole and amphotericin B resistant,24 and 48 h,,MIC99,1.54 µM
CCCCCCCC(=O)N[C@@H](CCN)C(=O)N[C@@H](CCN)C(=O)N[C@@H](CC(C)C)C(=O)N[C@@H](CC(C)C)C(=O)N[C@@H](CCN)C(=O)N[C@@H](CCN)C(=O)N[C@@H](CC(C)C)C(=O)N[C@@H](CCN)C(=O)N[C@@H](CCN)C(=O)N[C@@H](CC(C)C)C(N)=O,"Staphylococcus aureus, Escherichia coli",,,,baseline: S. aureus over E. coli,MIC ratio,1
CC(=O)O[C@@H]1C[C@@H](C)O[C@H]2O[C@@H]3C[C@@H]4CC[C@@H]5[C@H](CC[C@]6(C)[C@@H](C7=CC(=O)OC7)CC[C@]56O)[C@@]4(C)C[C@H]3O[C@]21O,Schistosoma mansoni,,"mouse, chronic infection","oral, 10 mg/kg single dose",,worm burden reduction,38% and 38.1%
CC[C@H](C)[C@H](NC(=O)[C@H](C)NC(=O)[C@H](CO)NC(=O)CNC(=O)[C@H](C)NC(=O)[C@H](CO)NC(=O)[C@H](CCCCN)NC(=O)[C@H](CC(C)C)NC(=O)[C@H](CCC(=O)O)NC(=O)[C@H](CC(=O)O)NC(=O)[C@H](CCCCN)NC(=O)[C@H](CC(C)C)NC(=O)[C@H](C)NC(=O)[C@H](CCCCN)NC(=O)[C@H](CC(C)C)NC(=O)[C@H](Cc1ccccc1)NC(=O)[C@H](CCCCN)NC(=O)[C@@H](N)CC(C)C)C(=O)NCC(=O)N[C@@H](CCCCN)C(=O)N[C@H](C(=O)N[C@@H](CC(C)C)C(=O)N[C@@H](Cc1c[nH]cn1)C(=O)N[C@@H](CCCCN)C(=O)O)C(C)C,Gram-negative bacteria,MIC,,concentration not given,,antibacterial activity,active
CC(C)C[C@@H]1NC(=O)[C@H](CCCCN)NC(=O)[C@H](C(C)C)NC(=O)[C@H](CCCCN)NC(=O)[C@@H]2CCCN2C(=O)[C@@H](Cc2ccc(O)cc2)NC(=O)[C@H](CCCCN)NC(=O)[C@H](CCCCN)NC(=O)[C@H](C(C)C)NC(=O)[C@@H]2CCCN2C(=O)[C@@H](Cc2ccc(O)cc2)NC1=O,Gram-negative bacteria,,,"24 h, 7 strains",,MIC geometric mean,210 mg/L
CC1(C)CC[C@]2(CO)CC[C@]3(C)C(=CC[C@@H]4[C@@]5(C)CCCNC(C)(C)[C@@H]5CC[C@]43C)[C@@H]2C1,Human alphaherpesvirus 1,,"HFF, E-377",,baseline: CC50 over EC50,selectivity index,< 2
COC(=O)C1=CO[C@@H](C)[C@@H]2Cn3ccc4c5ccccc5nc-4c3C[C@H]12,Plasmodium falciparum,"parasite growth, [3H]-hypoxanthine incorporation",Dd2 multidrug-resistant,concentration not given,baseline: Dd2 over 3D7,activity fold increase,4 to 8 fold
C=C(C)[C@@H]1CC[C@]2(CO)CC[C@]3(C)[C@H](CC[C@@H]4[C@@]5(C)CCCNC(C)(C)[C@@H]5CC[C@]43C)[C@@H]12,Human cytomegalovirus,,"HFF, AD169",,baseline: CC50 over EC50,selectivity index,115
CC(C)C[C@@H]1NC(=O)[C@H](CCCCN)NC(=O)[C@H](C(C)C)NC(=O)[C@@H]2CCCN2C(=O)[C@@H](Cc2ccc(O)cc2)NC(=O)[C@H](CC(C)C)NC(=O)[C@H](CCCCN)NC(=O)[C@H](C(C)C)NC(=O)[C@H](CCCCN)NC(=O)[C@H](CC(C)C)NC(=O)[C@H](CCCCN)NC(=O)[C@@H]2CCCN2C(=O)[C@@H](Cc2ccc(O)cc2)NC(=O)[C@H](CCCCN)NC(=O)[C@H](C(C)C)NC(=O)[C@H](CCCCN)NC1=O,Gram-negative bacteria,,,"24 h, 7 strains",,MIC geometric mean,19.5 mg/L
C=CCc1ccc(OCc2ccccc2)c(OC)c1,Spodoptera frugiperda,,larvae,500 µg/mL,baseline: untreated control,antifeedant index,47.5%
CC[C@H](C)[C@H](NC(=O)[C@@H]1CC(=O)N[C@@H](CO)C(=O)N[C@@H](CC(C)C)C(=O)NCC(=O)N[C@@H](CO)C(=O)N[C@@H](CO)C(=O)N2CCC[C@H]2C(=O)N[C@@H](Cc2ccc(O)cc2)C(=O)N[C@@H](CC(N)=O)C(=O)N1)C(=O)N[C@@H](CC(C)C)C(=O)NCC(=O)N[C@@H](Cc1ccc(O)cc1)C(=O)N1CCC[C@H]1C(=O)N[C@@H](C)C(=O)N[C@@H](CC(C)C)C(=O)N[C@H](C(=O)N[C@H](C(=O)N[C@H](C(=O)N[C@@H](Cc1ccc(O)cc1)C(=O)N1CCC[C@H]1C(=O)O)[C@@H](C)CC)C(C)C)[C@@H](C)CC,Gram-positive bacteria,,,concentration not given,,antibacterial activity,active
C=CCc1ccc(OCC(=C)C)c(OC)c1,Spodoptera frugiperda,,larvae,500 µg/mL,baseline: untreated control,antifeedant index,66.7%
COc1ccc(-n2c(SCC#N)nnc2[C@H](Cc2ccccc2)NC(=O)Cc2c(C)[nH]c3ccccc23)cc1,HIV-1 NL4-3,single-round infection,,"5 µM, early stage",baseline: untreated,infection,0.06 ± 0.01%
C/C=C/c1ccc(OC(C)=O)c(OC)c1,Spodoptera frugiperda,,larvae,50 µg/mL,baseline: untreated control,antifeedant index,34.5%
O=C(C1CCN(c2nnnn2-c2ccccc2)CC1)N1CCCc2ccccc21,Plasmodium falciparum,[3H]hypoxanthine incorporation,TM90 C2b,,,IC50,0.72 µM

# For quick reference, copied from above:
SMILES,organism,test,test system,conditions,how to read,endpoint,value
CC(=O)O[C@@H]1C[C@@H](C)O[C@H]2O[C@@H]3C[C@@H]4CC[C@@H]5[C@H](CC[C@]6(C)[C@@H](C7=CC(=O)OC7)CC[C@]56O)[C@@]4(C=O)C[C@H]3O[C@]21O,Schistosoma mansoni,microscopic viability score,adult worms,"1 µM, 72 h",,viability effect,90%
CC[C@H](C)[C@H](NC(=O)[C@H](CCCCN)NC(=O)[C@H](CCCCN)NC(=O)[C@H](CC(C)C)NC(=O)[C@H](CCCCN)NC(=O)[C@H](CCC(=O)O)NC(=O)[C@H](CCCCN)NC(=O)[C@@H](NC(=O)[C@H](CCCCN)NC(=O)[C@H](CC(N)=O)NC(=O)[C@H](CCCNC(=N)N)NC(=O)[C@H](Cc1ccccc1)NC(=O)[C@H](CCCCN)NC(=O)[C@H](CCCNC(=N)N)NC(=O)[C@H](CC(C)C)NC(=O)[C@H](CCCNC(=N)N)NC(=O)[C@H](CCCCN)NC(=O)[C@H](CCCNC(=N)N)NC(=O)[C@H](CC(C)C)NC(=O)[C@@H](N)CCCNC(=N)N)[C@@H](C)CC)C(=O)NCC(=O)N[C@@H](CCC(N)=O)C(=O)N[C@@H](CCCCN)C(=O)N[C@H](C(=O)N[C@@H](CCC(N)=O)C(=O)NCC(=O)N[C@@H](Cc1ccccc1)C(=O)N[C@H](C(=O)N1CCC[C@H]1C(=O)N[C@@H](CCCCN)C(=O)N[C@@H](CC(C)C)C(=O)N[C@@H](CCC(N)=O)C(=O)N1CCC[C@H]1C(=O)N[C@@H](CO)C(=O)N[C@@H](CCCCN)C(=O)N[C@@H](CCC(N)=O)C(=O)N[C@@H](CO)C(=O)O)C(C)C)[C@@H](C)CC,Streptococcus salivarius,inhibition zone,ATCC 1.2498,"LB agar, overnight",,lethal concentration,4.13 µM
Cc1cn(C2CC(N(C)C)C(CO)O2)c(=O)[nH]c1=O (stereo not drawn),respiratory syncytial virus,viral replication,HeLa,,,EC50,> 0.37 µM
